Published values pooled from the literature.
Each line is one published result; not all experiments were run side by side. Numbers after ± are the reported error.
Cell line: MCF7

Compound | assay | setting | how to read | quantity | value
CC(=O)N1CCCC[C@H]1C(=O)NC(C)(C)C(=O)N1CCCC[C@H]1C(=O)NC(C)(C)C(=O)NC(C)(C)C(=O)N[C@@H](CC(C)C)C(=O)NCCC(=O)N[C@@H](C)C(=O)NC(C)(C)C(=O)NC(C)(C)C(=O)N1CCCC[C@H]1C(=O)NC(C)(C)C(=O)NCC(=O)N[C@@H](CC(C)C)C(=O)NC(C)(C)C(=O)N[C@@H](CC(C)C)C[N+]1=C2CCCN2CCC1 | cell growth or viability, SRB | 48 h | – | GI50 | 27 nM
CC(=O)N[C@@H](CCCNC(=N)N)C(=O)N[C@@H](CCCNC(=N)N)C(=O)N[C@@H](CCCNC(=N)N)C(=O)N[C@@H](CCCNC(=N)N)C(=O)N[C@@H](CCCNC(=N)N)C(=O)N[C@@H](CCCNC(=N)N)C(=O)N[C@@H](CCCNC(=N)N)C(=O)N[C@@H](CCCNC(=N)N)C(=O)N[C@@H](CCCNC(=N)N)C(=O)N[C@@H](CCCNC(=N)N)C(=O)NCC(=O)N[C@@H](COP(=O)(O)O)C(=O)N1CCC[C@H]1C(=O)N[C@H](C(=O)N[C@@H](Cc1ccccc1)C(=O)O)[C@@H](C)O | flow cytometry | 100 µM, 24 h | – | G2/M cells | 23.9 ± 2.23%
C=CC[P](c1ccccc1)(c1ccccc1)[Pt]([S]c1ccccn1)([S]c1ccccn1)[P](CC=C)(c1ccccc1)c1ccccc1 | annexin V/7-AAD flow cytometry | 2.5 µM | – | early apoptotic cells | 11%
CN1C(=O)C2(Cc3ccc(CC45SSC(CO)(C(=O)N4C)N(C)C5=O)cc3)SSC1(CO)C(=O)N2C (racemic) | microarray, item: TFRC | 600 nM, unit not given, together with: deferoxamine 300 µM | relative to: deferoxamine alone | mRNA level change | -1.8
CC[C@@]1(O)C(=O)OCc2c1cc1n(c2=O)Cc2cc3cc(OC(=O)CCCC(=O)NCC(=O)N[C@@H](Cc4ccccc4)C(=O)N[C@@H](Cc4ccccc4)C(=O)N[C@@H](Cc4ccc(OP(=O)(O)O)cc4)C(=O)NCCSSCCNC(=O)CCC(=O)N[C@@H](CCC(=O)O)C(=O)N[C@@H](CCCNC(=N)N)C(=O)NCC(=O)N[C@@H](CC(=O)O)C(=O)O)ccc3nc2-1 | cell growth, MTT | 48 h | relative to: free hydroxycamptothecin over compound | IC50 ratio | 3.7 fold
Cc1cc(C)n2c1C=C1C=CC(CCC(=O)NCCCCCC(=O)NCCOCCOCCOCCOCCOCCOCCNC(=O)[C@H](Cc3c[nH]c4ccccc34)NC(=O)[C@@H](CC(C)C)NC(=O)[C@H](Cc3c[nH]c4ccccc34)NC(=O)[C@@H](CC(C)C)NC(=O)[C@H](Cc3c[nH]c4ccccc34)NC(=O)[C@@H](CC(C)C)NC(=O)[C@H](Cc3c[nH]c4ccccc34)NC(=O)[C@H](NC(=O)[C@@H](NC(=O)[C@H](NC(=O)[C@H](C)NC(=O)[C@@H](CC(C)C)NC(=O)[C@H](C)NC(=O)CNC(=O)[C@@H](NC=O)C(C)C)C(C)C)C(C)C)[C@H](C)O)=[N+]1[B-]2(F)F | sulforhodamine B | 48 h | – | LC50 | > 5000 nM
O=C1c2ccccc2C(=O)c2c1ccc1c2C(C(=O)NCc2ccccc2)C(=O)C1c1ccccc1 (stereo not drawn) | cytotoxicity | – | – | CC50 | 26.1 ± 0.85 µg/mL
Cc1cc(C)n2c1C=C1C=CC(CCC(=O)NCCCCCC(=O)NCCOCCOCCOCCOCCOCCOCCNC(=O)[C@H](Cc3c[nH]c4ccccc34)NC(=O)[C@@H](CC(C)C)NC(=O)[C@H](Cc3c[nH]c4ccccc34)NC(=O)[C@@H](CC(C)C)NC(=O)[C@H](Cc3c[nH]c4ccccc34)NC(=O)[C@@H](CC(C)C)NC(=O)[C@H](Cc3c[nH]c4ccccc34)NC(=O)[C@H](NC(=O)[C@@H](NC(=O)[C@H](NC(=O)[C@H](C)NC(=O)[C@@H](CC(C)C)NC(=O)[C@H](C)NC(=O)CNC(=O)[C@@H](NC=O)C(C)C)C(C)C)C(C)C)C(C)C)=[N+]1[B-]2(F)F | cell growth or viability, SRB | 48 h | – | GI50 | 170 nM
O=C1c2ccccc2C(=O)c2c1ccc1c2C(C(=O)Nc2ccc(Br)cc2)C(=O)C1c1ccccc1 (stereo not drawn) | cytotoxicity | – | – | CC50 | 55.34 ± 0.05 µg/mL
CC=C(C)C(=O)OC1C(O)C2OC(COC(=O)CCCCCCCCCC(CCCCC)OC3OC(C)C(OC(C)=O)C(O)C3O2)C1OC(=O)C=Cc1ccccc1 (stereo not drawn) | – | – | relative to: IC50 MCF-10A over IC50 MCF7 | selectivity index | 0.93
C#CCOCC1=C(C(=O)OCC)C(c2cccc(Cl)c2)N2C=CSC2=N1 (stereo not drawn) | MTT | 100 µM, 48 h | – | viability | 58%
O=C1c2ccccc2C(=O)c2c1ccc1c2C(C(=O)Nc2ccccc2Cl)C(=O)C1c1ccccc1 (stereo not drawn) | – | – | relative to: Vero IC50 over MCF7 IC50 | selectivity index | 1.48
CC(=O)N1CCCC[C@H]1C(=O)NC(C)(C)C(=O)N1CCCC[C@H]1C(=O)NC(C)(C)C(=O)NC(C)(C)C(=O)N[C@@H](CC(C)C)C(=O)N[C@@H](C)CC(=O)NCC(=O)NC(C)(C)C(=O)NC(C)(C)C(=O)N1CCCC[C@H]1C(=O)NC(C)(C)C(=O)NCC(=O)N[C@@H](CC(C)C)C(=O)NC(C)(C)C(=O)N[C@@H](CC(C)C)C[N+]1=C2CCCN2CCC1 | cell growth or viability, SRB | 48 h | – | GI50 | 8.8 nM
CC1=CCC23OC2(C)CCC2C(C[N+](C)(C)C)C(=O)OC2C13.[I-] (stereo not drawn) | cell growth or viability, SRB | 8.3 µM | – | inhibition | 70.6%
CC/C=C\C/C=C\C/C=C\C/C=C\C/C=C\C/C=C\CCC(=O)Nc1ccn(C2OC(CO)C(O)C2(F)F)c(=O)n1 (stereo not drawn) | – | – | – | CC50 | 42300 nM
C[C@@H](N)[C@H](O)CCCCCCCC(=O)CCCCCCCCCCCCCC[C@@H](O[C@@H]1O[C@H](CO)[C@H](O)[C@H](O)[C@H]1O)[C@H](N)CO | – | – | relative to: IC50 MCF-12A over IC50 MCF7 | selectivity ratio | 2.3
COc1ccc(NC(=O)C2C(=O)C(c3ccccc3)c3ccc4c(c32)C(=O)c2ccccc2C4=O)cc1 (stereo not drawn) | – | – | relative to: Vero IC50 over MCF7 IC50 | selectivity index | 1.08
CC(=O)N1CCCC[C@H]1C(=O)NC(C)(C)C(=O)N1CCCC[C@H]1C(=O)NC(C)(C)C(=O)NC(C)(C)C(=O)N[C@@H](CC(C)C)C(=O)NC[C@@H](C)C(=O)NCC(=O)NC(C)(C)C(=O)NC(C)(C)C(=O)N1CCCC[C@H]1C(=O)NC(C)(C)C(=O)NCC(=O)N[C@@H](CC(C)C)C(=O)NC(C)(C)C(=O)N[C@@H](CC(C)C)C[N+]1=C2CCCN2CCC1 | cell growth or viability, SRB | 48 h | – | GI50 | 30 nM

Repeated from above:
Compound | assay | setting | how to read | quantity | value
CN1C(=O)C2(Cc3ccc(CC45SSC(CO)(C(=O)N4C)N(C)C5=O)cc3)SSC1(CO)C(=O)N2C (racemic) | microarray, item: TFRC | 600 nM, unit not given, together with: deferoxamine 300 µM | relative to: deferoxamine alone | mRNA level change | -1.8
CC[C@@]1(O)C(=O)OCc2c1cc1n(c2=O)Cc2cc3cc(OC(=O)CCCC(=O)NCC(=O)N[C@@H](Cc4ccccc4)C(=O)N[C@@H](Cc4ccccc4)C(=O)N[C@@H](Cc4ccc(OP(=O)(O)O)cc4)C(=O)NCCSSCCNC(=O)CCC(=O)N[C@@H](CCC(=O)O)C(=O)N[C@@H](CCCNC(=N)N)C(=O)NCC(=O)N[C@@H](CC(=O)O)C(=O)O)ccc3nc2-1 | cell growth, MTT | 48 h | relative to: free hydroxycamptothecin over compound | IC50 ratio | 3.7 fold
Cc1cc(C)n2c1C=C1C=CC(CCC(=O)NCCCCCC(=O)NCCOCCOCCOCCOCCOCCOCCNC(=O)[C@H](Cc3c[nH]c4ccccc34)NC(=O)[C@@H](CC(C)C)NC(=O)[C@H](Cc3c[nH]c4ccccc34)NC(=O)[C@@H](CC(C)C)NC(=O)[C@H](Cc3c[nH]c4ccccc34)NC(=O)[C@@H](CC(C)C)NC(=O)[C@H](Cc3c[nH]c4ccccc34)NC(=O)[C@H](NC(=O)[C@@H](NC(=O)[C@H](NC(=O)[C@H](C)NC(=O)[C@@H](CC(C)C)NC(=O)[C@H](C)NC(=O)CNC(=O)[C@@H](NC=O)C(C)C)C(C)C)C(C)C)[C@H](C)O)=[N+]1[B-]2(F)F | sulforhodamine B | 48 h | – | LC50 | > 5000 nM
